Measurements gathered from unrelated publications.
Numbered parts are unrelated; each lists some results of a single study. Changes are numbered by the printed parent chain.

Sample 1
Target: RING finger protein unkempt homolog, zinc fingers 1-6, GST-SBP tag (UNK, Homo sapiens, UniProt Q9C0B0, residues 30-357)
Sequence of UniProt Q9C0B0 (30-357, looked up): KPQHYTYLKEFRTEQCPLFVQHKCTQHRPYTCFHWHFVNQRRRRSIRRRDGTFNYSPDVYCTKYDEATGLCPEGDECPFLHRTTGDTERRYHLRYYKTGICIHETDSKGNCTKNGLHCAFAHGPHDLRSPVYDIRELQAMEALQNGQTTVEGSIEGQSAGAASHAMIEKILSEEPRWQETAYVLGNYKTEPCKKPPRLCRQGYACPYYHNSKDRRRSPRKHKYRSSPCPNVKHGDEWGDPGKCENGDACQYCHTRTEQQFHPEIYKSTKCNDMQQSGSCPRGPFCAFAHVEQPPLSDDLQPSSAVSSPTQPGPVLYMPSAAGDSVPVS
Method: RNA Bind-n-Seq
Form: RNA
Sample: in vitro
Concentration: not given
Notes: RNA with constant flanks, human and mouse sites, ends assumed
Baseline: input RNA pool
Direction: higher = stronger binding
All sequences stand within: GGGAGUUCUACAGUCCGACGAUC … CAACAGAGGAUUGAGCAUCA
Strand	bound/input enrichment [ratio]
AUUACUGUCUUGCUGAUCUUGCAUCUUUAAUGGAUAAAACAUUUGAGAGAAAGUUGCCUGUUAGUUCUUUAACAAUAUCACGGCUUAUAGACAACAUUUCCUCUCGGGAAGAGAUAGAUC	0.488
GUGGAUGUUUUGAUUGACACAUGUCAAGGUGAUGACGCACUUCCAAAUGGGUUAGACGUUACCUUUGAAGUAACUGAAUUGAGGAGAUUAACGGGCAGUUAUAACACCAUGGUUGGAAAC	0.377
AUGGAACAUGGUGUAAAACCUCACAGUAAACAUCUUACAGAGUAUUUUGCCUUCCUUUACGAAUUUGCAAAAAUGGGUGAAGAAGAGAGCCAAUUUUUGCUUUCAUUGCAAGCUAUAUCU	0.129
GCUCCAAACCAGUUCUUCUGCAGAGUGGUGAUGUUAGCUUCCCCAGCUCCUCUCCAAGUCUAGCUUUUUCUGUCCUUCUGGCUCCAAGGUGCUCUGUGUCUGUGUGUGUGUGUCUGUCUG	1.48
UCAAAAAUGUAAAGCUGAAAAUAAAACCAGGGUUUCUAUUUAUCUGUUUUUUUUUUUAAUGUUGCACUUGUAGUUUCAUUACAAAAGAUCAGAUCAUGAAAGGCAGUAACUCUCCAGGAC	0.386
GUCAACUAUGAAGAAUUCGUACAGAUGAUGACUGCAAAAUGAAGACCUACUUUCAACUACUUUUCCCCCUCUAGAAGAAUCAAAUUGAAAUCUUUUACUUACCUCUUACAAAAAAAAGAA	2.17
GCCUGCAGUGGGACUGCUCCUUUGAUAUCUGAACCUCUGUUAUGGGCUUCUCUGAGACAAGUAAAUGUCAGGUGCAAGAUCUGGAUACUAACAGUUUCAGUUUGGGAAAUCCAAGAAAAA	0.151
CGAGGGCUCCAGGCACUGGGCCAGACCUUCGGGGCCAACCCAGCCUUUGCCAGCUCCCUCCGAUACCUGGACCUGAGCAAGAACCCAGGGCUGCUUGCCACAGACGAGGCCAAUGCCCUC	0.23
UUACUUUUAACUCCAUGGGUUAAAUUCCUGUGGGAGUCUUACAGGCAGUGUUUGGACCUUCUUAGAAACAAUUCUAGAGUAGAGCGCCUGUACCAUGAUAUUGCCCAGCAAGCUUUCAAA	0.333
AGACUGUCUGUUGUUGCCUUCUCAGAGUUUUGCAGCUCAGGGUUGGGGCCUAGUUACAGUUUGGAUCCUUAGUCCAAGAAUUUUGAGAACGUGAGUAAAACCUUGGCAGGAGCUAAAAAA	0.289
UACUCAACUUUCUUGCCACAUUUUGAAUUCCAAGACAUUAUUCCUCCAGAUGACUUCCUAACGAGUGAUGAAGAGCAAGAUUUGGUUUUAUUUGGAACUAUGAGAGGACAAGUUGUUGGA	0.174

Sample 2
Target: CCND2, cyclin fold, Cln2 fusion (human)
Method: yeast growth competition, sequencing
Sample: yeast
Notes: weak parent motif
Baseline: not given
Direction: higher = stronger binding
Starting sequence: ORC1 docking peptide (human); PRARKRLELGNLG; partner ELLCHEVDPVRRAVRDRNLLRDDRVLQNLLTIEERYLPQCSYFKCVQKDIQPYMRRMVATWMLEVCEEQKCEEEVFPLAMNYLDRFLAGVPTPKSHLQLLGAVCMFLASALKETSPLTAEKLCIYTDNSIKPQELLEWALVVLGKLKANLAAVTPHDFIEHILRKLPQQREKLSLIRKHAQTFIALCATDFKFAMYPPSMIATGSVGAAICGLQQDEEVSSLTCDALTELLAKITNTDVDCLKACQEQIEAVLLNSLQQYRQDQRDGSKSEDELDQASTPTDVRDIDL
Variant	normalised enrichment score
PRARKRLELGILG [N11I]	-0.244
PRARMRLELGNLG [K5M]	-0.0384
TRARKRLELGNLG [P1T]	0.0665
PRARKLLELGNLG [R6L]	0.404
PRARKRLELGNMG [L12M]	0.534
PRARKMLELGNLG [R6M]	0.115
PRARKRLELGSLG [N11S]	0.0348
PRARKRLEEGNLG [L9E]	0.116
PRARKRLELGTLG [N11T]	-0.045
PRARCRLELGNLG [K5C]	0.127
PRVRKRLELGNLG [A3V]	0.0586
PRARKRLQLGNLG [E8Q]	0.302
PRARKQLELGNLG [R6Q]	0.123
PRARKVLELGNLG [R6V]	0.0901
PRARKRCELGNLG [L7C]	-0.049
PRMRKRLELGNLG [A3M]	0.763
PRARKRLEDGNLG [L9D]	0.147
PRARKRLELHNLG [G10H]	0.0747
PRARKYLELGNLG [R6Y]	0.00594
PRARKRLELGNIG [L12I]	0.0693
PRAQKRLELGNLG [R4Q]	-0.0432
PRARKRLELGNTG [L12T]	0.206
PRARKRQELGNLG [L7Q]	0.0189
PRARARLELGNLG [K5A]	0.0124
PRARKRLELRNLG [G10R]	0.129

Sample 3
Target: ABI1, truncated, D143A, DHFR fusion (Arabidopsis thaliana)
Method: DHFR PCA, deep sequencing
Sample: yeast
Notes: methotrexate growth selection, single substitutions
Together with: (+)-ABA 0.11 µM
Baseline: wild-type fitted maximum
Direction: higher = stronger binding
Starting sequence: PYL1, truncated, DHFR fusion (Arabidopsis thaliana); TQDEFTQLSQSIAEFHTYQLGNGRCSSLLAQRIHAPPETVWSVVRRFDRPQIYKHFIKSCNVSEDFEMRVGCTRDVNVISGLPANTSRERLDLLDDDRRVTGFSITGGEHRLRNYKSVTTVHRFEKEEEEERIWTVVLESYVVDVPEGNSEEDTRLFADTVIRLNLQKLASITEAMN
Variant	relative binding score
L28G	3.43%
T135I	-1.51%
R99A	-11.5%
G108F	-1.29%
S150L	10%
D144R	-5.82%
R98I	5.58%
T160M	8.47%
T73P	-1.87%
V143S	-2.18%
R88A	3.5%
E151Y	11.5%
T101Q	-5.12%
V62H	1.26%
E67L	2.75%
L156Y	-1.47%
E130S	39.9%
Y18R	3.16%
R46Y	-6.52%
D75N	31.4%

Sample 4
Target: Phosphate system positive regulatory protein PHO4, full length, GST-tagged (PHO4, Saccharomyces cerevisiae, UniProt P07270, residues 1-312)
Method: competition protein-binding microarray
Form: double-stranded DNA, one strand shown
Sample: in vitro
Concentration: 2 µM
Notes: whole 60-bp probe, lowest competitor level
Together with: Cbf1 competitor, 0.05 µM
Direction: higher = stronger binding
All sequences stand within: … GTCTTGATTCGCTTGACGCTGCTG
Construct (chain): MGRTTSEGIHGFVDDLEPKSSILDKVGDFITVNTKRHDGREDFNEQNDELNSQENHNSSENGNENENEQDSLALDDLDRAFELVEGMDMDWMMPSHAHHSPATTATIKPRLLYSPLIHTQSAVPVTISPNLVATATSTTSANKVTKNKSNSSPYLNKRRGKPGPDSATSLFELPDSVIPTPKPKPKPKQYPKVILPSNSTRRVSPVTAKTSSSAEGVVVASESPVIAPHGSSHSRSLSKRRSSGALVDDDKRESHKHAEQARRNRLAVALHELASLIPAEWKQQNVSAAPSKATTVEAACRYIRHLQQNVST
Strand	fluorescence intensity [a.u.]
AAAGCGGTAATTTGGGAGGTGGGTGCAGATATCTAT	4760
CATACCCAACCTTGGAGAGTGGGTGAAGATATTTGT	4020
AATAAAACAAGGCGCCATGTGACAGTTTCCAAAAGG	8990
GTCTTGTCTCATTGTGGAGTGGGTGTCCCCACTTCA	4940
GAGTTATAATTTCACCACGTGAGCCCGATGAAATAG	16700
ACTCGGCTAGGTATCCCCGTGGATTTTTACCCAACA	7250
TCACCGGGTGCCGGCCACGCAATATATAAAACGGTA	6310
GTCTTGTCTCATTGGGGAGTGGGTGTCCCCACTTCA	5160
CGTTCGTAATGCCAACACGATGCAGACCTGAGCCTA	9400
CACCGATTTGGTAATGCCGTGATGGAACCTCGAGGA	3850
TTTCTTCGTCTTCGTCCCGTGAGTCCGGACTCAGAA	4040
AAATTACTAAGTTGGCTCGTGGGTGACGCCGTATGA	10600
CGTCCTAGCGATTGAGCGGTGGGTGCCATGAGGAAG	6120
AAATTACTAAGTTGTGGAGTGGGTGACGCCGTATGA	3920
TTTCGATAATGTTAAGGAGTTTGAATTAACTACCAG	2810
CAAGGCTCTTCAAACCATGTGACAGTAAACTTCGCA	7560
AAGCGCCAAGTACAGAACGTGACGGTAAGAAAGAAT	12700
TGCGCAACAACTTGTCACAGCACTTTATGTCTAGAA	3210
ACTAATGAATTGGTCCACGTTTAGCTTACTTCCCGA	12400
CAAGATTGCCATTTGCACGGGTAGCGCAAGTGAGAA	6870
GGCTTTCTAAGTGAGCTCGTGCCAGCACAATTAATA	12700
CATACCCAACCTTTTCACGTGCTATAAGATATTTGT	17600
CTAACGAAGGTTTTTCACGTGGACTACAAGCCAAGT	14000
CAAAAGGCATGGCCTGGCGTGCAAAATCCGTTGTTT	5790
CCGATGTATTTCTGCCTCGTGCAAAATCTTGCGCCA	11500

Sample 5
Target: PABPC1L2, full length, GST fusion (mouse, UniProt A0ABA7IW68)
Method: RNAcompete
Form: RNA
Sample: in vitro
Concentration: 20 nM
Notes: 7-mer, probes averaged, single round
Baseline: mean of 7-mers
Direction: higher = stronger binding
Construct (chain): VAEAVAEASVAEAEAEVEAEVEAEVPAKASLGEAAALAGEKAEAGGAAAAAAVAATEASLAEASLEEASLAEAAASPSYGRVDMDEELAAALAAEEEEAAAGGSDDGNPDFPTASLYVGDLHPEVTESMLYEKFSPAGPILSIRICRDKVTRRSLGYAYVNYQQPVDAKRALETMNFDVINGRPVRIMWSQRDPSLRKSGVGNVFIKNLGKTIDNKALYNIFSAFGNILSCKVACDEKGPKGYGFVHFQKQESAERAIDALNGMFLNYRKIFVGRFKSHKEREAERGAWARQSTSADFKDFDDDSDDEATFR
Strand	7-mer Z-score
GAAGCCC	-0.293
AGUUUCU	-0.396
UUUUCCC	-0.452
CUUAUCA	-0.153
CCCUACU	-0.296
AGCUUGG	0.066
CUAAAGU	0.0823
AAUCCAC	0.0823
UAGAGUA	-0.108
GGGGAGC	0.231
AGGCUAU	0.137
AGCGUAC	-0.159
CGCGACA	-0.0409
AAGACGA	0.677
GUUGGUA	-0.144
ACAUCGG	0.0225
AGACUCC	-0.307
CCAGACU	-0.34
UAUGGAA	0.204
UGUAGUA	-0.208
ACCGUAG	-0.315
CGGACUC	-0.142
CCAAACA	1.53
GUCUCCU	-0.389

A few entries again (sample 2):
Variant	normalised enrichment score
PRARCRLELGNLG [K5C]	0.127
PRVRKRLELGNLG [A3V]	0.0586
PRARKRLQLGNLG [E8Q]	0.302
PRARKQLELGNLG [R6Q]	0.123
PRARKVLELGNLG [R6V]	0.0901
PRARKRCELGNLG [L7C]	-0.049
PRMRKRLELGNLG [A3M]	0.763
PRARKRLEDGNLG [L9D]	0.147
PRARKRLELHNLG [G10H]	0.0747
PRARKYLELGNLG [R6Y]	0.00594
PRARKRLELGNIG [L12I]	0.0693
PRAQKRLELGNLG [R4Q]	-0.0432
